Experimental data from different studies.
Each numbered part is a random draw from the data of one study; scales do not carry over between parts. Positions count from the first letter of the parent shown.

Set 1 — technique: protein-binding microarray; molecule type: double-stranded DNA, one strand shown; medium: in vitro; tested at: not given; reading: higher = stronger binding; quantity: E-score
Target: Protein max, full length (MAX, Homo sapiens, UniProt P61244-2, residues 1-151)
Setting: k-mer, scored over probes, only values ≥0.25
AGGCATGC: 0.408
CACGCGCA: 0.442
CAGGCACG: 0.313
CACTCACG: 0.319
CACGTGGA: 0.497
ATGCACGA: 0.295
CCATGCGC: 0.445
ACGTGGAG: 0.431
AACACATG: 0.479
GCATGCGA: 0.39
AGGCGCAT: 0.283
AGAGCGTG: 0.379
ACGCACGT: 0.403

Set 2 — technique: RNA Bind-n-Seq; molecule type: RNA; medium: in vitro; tested at: not given; setting: RNA with constant flanks, ends assumed; relative to: input RNA pool; reading: higher = stronger binding; quantity: bound/input enrichment
Target: RING finger protein unkempt homolog, zinc fingers 1-6, GST-SBP tag (UNK, Homo sapiens, UniProt Q9C0B0, residues 30-357)
Shared flanks, not repeated: GGGAGUUCUACAGUCCGACGAUC … CAACAGAGGAUUGAGCAUCA
Target sequence (chain): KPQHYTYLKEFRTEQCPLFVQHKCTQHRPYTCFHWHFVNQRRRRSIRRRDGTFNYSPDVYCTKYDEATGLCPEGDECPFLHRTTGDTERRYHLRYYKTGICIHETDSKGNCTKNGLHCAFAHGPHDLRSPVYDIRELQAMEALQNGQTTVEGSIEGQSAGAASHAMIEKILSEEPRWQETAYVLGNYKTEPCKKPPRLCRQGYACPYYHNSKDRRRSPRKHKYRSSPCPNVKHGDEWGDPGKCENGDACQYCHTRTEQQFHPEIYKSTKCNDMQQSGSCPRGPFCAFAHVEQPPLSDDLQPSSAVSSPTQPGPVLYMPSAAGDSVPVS
ACUUUUGGACUUGAUCAAUUGAAAACCAGAGAAGCCAUUGCCAUGCUCCACAAAGAUGGUACCGAAUUUGCUUUUAAGGAGCCUAAUCCACAAGGGGAGAGCCAUCCACCUUUAAACUUG: 0.144 ratio
AUGGCACAACUUCUGGAUCUCUCUGUGGAUGAGUCAGAGGCUUUCCUCUCGAAUCCCGUCGUUAACAAGACCAUCUUUGCUAAAGUAGACAGGUUGGCUGGAGUCAUCAACUUCCAGAGA: 0.185 ratio
UAAAUGUUCCCGCUGUGUCCCUGGAUAUGGAAUAAGCAGGUAUAAAAAAUAUUUUAAUUACCGUUUUGUUAUAAAUAUAACUUAUGAGAAAAAAAUUUGAUAGGAAUAAUACUGUAUAUU: 2.76 ratio
UGGCAAGGGUUGUGUAAAUCUACAUGGGGUCACUGCUCUAUAUACAAUAAGAACCCACCUUCCGGAUUUUCUUUUAGAAAAUUGUAUAUGCAGCUAGAUGAGGGAAGCCUCACCUUUAAU: 1.26 ratio
GUUAAUCAUGAUUCAGAAGAUCUAGCUUCACCCUCUGAGUAUCCAGAAAAUGGAGAAAGAUUCCGCUUCCUGAGCAAACCUGUUGAUGAGAACAAUCAGCAGGAUGGAGAAGAUGACUCU: 0.0855 ratio
CAUACUUGAACAUUUGUAUCGACUGCAUUGUCUCUCUUUUUUUGGCUAUAAUUAUUCACCUUCCGCUUUUGUCUCUUGUGCAUGCUAUCACAGUUUUGCUUGUAUUUUUAGCAUAUGAAC: 0.516 ratio
AAUGUGACUUCCAUGAUAAACCUAAAGAAGACUACUUCAUCAGCUGAUGCUAAAAAUGUCCGUGUGACAUCUGAGGCUUUAUCUUCAAAUCCUUCCUACAACAGAGAAAAGCGUGUUUAU: 0.107 ratio
CGCAUUUUGAUGGUUGGAUUGGAUGCUGCUGGCAAGACGACAAUUCUGUAUAAACUGAAAUCCGGGGAAAUAGUCACCACCAUUCCUACCAUUGGUUUUAAUGUGGAAACAGUAGAAUAU: 0.49 ratio
GAAUGCAGUUAUAUUUGGACCAGAAGGGACACCUUUUGAAGAUGGUACUUUUAAACCCGUAACCGAAUUUUCUGAAGAAUAUCCAAAUAAACCACCAACUGUUAGGUUUUUAUCCAAAAU: 0.226 ratio
AACGGUGCCCCUGCAUGUGCUCAGAAGCUCUAUGCAGAACUGUGCCAAGGCAUCGUGGACACCGCCAUUUCCAGUGUCUUCCCACCCCCAGAUGUGGAGCAACCUCAGACCCAGCCAGCU: 0.159 ratio

Set 3 — technique: protein binding microarray; molecule type: double-stranded DNA, one strand shown; medium: in vitro; tested at: not given; relative to: not given; reading: higher = stronger binding; quantity: E-score
Target: Histone acetyltransferase KAT6A, winged helix 1, GST fusion (KAT6A, Homo sapiens, UniProt Q92794, residues 1-85)
Setting: 8-mer, flanks averaged, mean of 2 arrays, mostly near background
Residues (chain): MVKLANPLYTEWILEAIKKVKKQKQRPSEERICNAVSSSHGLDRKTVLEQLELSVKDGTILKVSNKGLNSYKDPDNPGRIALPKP
CATCGCCC: 0.132
AGGAGGGC: -0.201
AGGACTAT: -0.149
AGTTGCCG: 0.199
ACCGCCCG: 0.421
AGCTTCGC: -0.0355
CCAACGAG: -0.25
AGGTATGC: -0.13
AAAGCCTG: -0.0936
TAGGAGAA: -0.225
AACCCTCT: -0.084
AAACCTCC: -0.163
AGCCTTCG: -0.089
AGTTCCAG: -0.17
CCTGTGAA: -0.171
ACTCTAGC: 0.00283
ACTTCGCG: 0.11
GCCTCCCC: 0.139
ACCCCATC: -0.093
ACGCTGCG: 0.227
AATCGGAC: -0.0802

Set 4 — technique: DHFR PCA, deep sequencing; medium: yeast; added: (+)-ABA 2500 µM; relative to: wild-type fitted maximum; reading: higher = stronger binding; quantity: relative binding score
Target: ABI1, truncated, D143A, DHFR fusion (Arabidopsis thaliana)
Setting: methotrexate growth selection, single substitutions
Parent: PYL1, truncated, DHFR fusion (Arabidopsis thaliana); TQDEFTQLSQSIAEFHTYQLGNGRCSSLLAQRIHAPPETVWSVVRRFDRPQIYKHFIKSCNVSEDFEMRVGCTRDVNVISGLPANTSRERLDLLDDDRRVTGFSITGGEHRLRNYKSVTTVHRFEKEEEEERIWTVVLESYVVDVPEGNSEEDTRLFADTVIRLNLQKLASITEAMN; partner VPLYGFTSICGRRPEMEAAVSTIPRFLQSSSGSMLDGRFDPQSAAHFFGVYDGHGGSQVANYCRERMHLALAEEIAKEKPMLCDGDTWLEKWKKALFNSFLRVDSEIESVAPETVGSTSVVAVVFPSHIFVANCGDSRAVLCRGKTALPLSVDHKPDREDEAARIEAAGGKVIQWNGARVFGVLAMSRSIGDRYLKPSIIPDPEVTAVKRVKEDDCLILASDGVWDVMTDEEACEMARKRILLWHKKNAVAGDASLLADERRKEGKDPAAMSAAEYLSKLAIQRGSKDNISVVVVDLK
E174F: 88%
N22F: 95.3%
E129N: 105%
P83T: 44.1%
L156M: 99.9%
E147G: 94.7%
T6K: 111%
T106Q: 102%
S87R: 8.84%
T160E: 76.4%
I52W: 93%
M176A: 98.2%
L94E: 45%
S80E: 63.8%
H122T: 87.2%
V70L: 91.6%
I52M: 93.6%

Set 5 — target: CCNA2, cyclin fold, Cln2 fusion (human); technique: yeast growth competition, sequencing; medium: yeast; setting: weak parent motif; relative to: not given; reading: higher = stronger binding; quantity: normalised enrichment score
Parent: WEE2 docking peptide (human); KELRQKLNFSYCE
AELRQKLNFSYCE [K1A]: 0.518
KELRAKLNFSYCE [Q5A]: 0.681
KELRQALNFSYCE [K6A]: 0.365
KELRQKLNASYCE [F9A]: 0.661
KELRQKLNFSYCA [E13A]: 1.04
KELAQKLNFSYCE [R4A]: -0.2

Set 6 — technique: RNA Bind-n-Seq; molecule type: RNA; medium: in vitro; tested at: 365 nM; relative to: no-protein control; reading: higher = stronger binding; quantity: RBNS enrichment (R)
Target: RNA binding protein fox-1 homolog 2, RRM domain, GST-SBP tag (RBFOX2, Homo sapiens, UniProt O43251-10, residues 100-194)
Setting: natural RNA segment, single round, ends assumed
Shared flanks, not repeated: GGGAGUUCUACAGUCCGACGAUC … UGGAAUUCUCGGGUGCCAA
Residues (chain): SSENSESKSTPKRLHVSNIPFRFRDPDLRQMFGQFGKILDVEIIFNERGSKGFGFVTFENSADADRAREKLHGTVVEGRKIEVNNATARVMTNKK
GGCUGAUGAGCAGCGUCAAGGACAACGUGGGCCGCGGGCUGAACAUCGCCCUGGUGAACGGGGUCAGCGGCGAGCUCAUCGAGGCCCGGGCCUUUGACAUGUGGGCCGGA: 0.99
UGAAGGAACCAAUAUUUGGACCUUAUUUUGAGGUUGUCUGUCUCGAAGAAAAAGAAAAUAAAAUGUAUAGGCAGGGUUCCUUCAAUUGGCAUUUUCCCCAGAAUUGUGAG: 0.844
CUCAAAGCAUCUGACUCACCUGCAUGAUCACAAGCUUUCUUUGACGGUUUCUCCCAUCCGUGUUCCAGCAUCUAACCUUUUACUUUUGCAUAGGAAAUACUUGAUUUAAU: 1.83
UCUCACGUAAACCUUCCUGAAAGAUAAACGUUUUCCUGAAUUCAGAAACUAGUAGCUAACAUUGCUUCUGGAGAGCAGAAAUAAGCAUGUCUUCUGGCUACUAAGUGAUA: 1.1
UUUCCUCCACUGUACAAUGUCACAGACUAUCUCUAUCAUCAUUGCUUUGUGGCUGUUUCUGUUUUUUACUGUAUGUAACUGGUAGCUGAUUGUACUAGGAUUAAAAACAA: 0.765
UUGAGAAAAGGUUGUAGGAUGUGUCACAAGAGACUUUUGACAAUUCUGAGGAACCUUGUGUCCAGUUGUUACAAAGUUUAAGCUUUGAACCUAACCUGCAUCCCAUUUCC: 0.305
GCAGUGCAGCACCGGCCCAGGGCAUCACUAGACAGGCCCUAAUUAAGUUUUUUUUAAAAAGCCUGUGUAUUUAUUUUAGAAUCAUGUUUUUCUGUAUAUUAACUUGGGGG: 0.806
AUUUUUGUAGCGACUGUAAACAGAAAUGCCAAAUUGAUGGUUAAUUGUUGCUGCUUCAAAAAUAAGUAUAAAAUUAAUAUGUAAGGAAGCCCAUUCUUUCAUGUUAAAUA: 0.283
ACUUCCAUAUUCCAUUCCUUCCUCCUAAGGGACAAUGGAAGUUCUCAGAAGAGUAUCUUCAGUAAGAGGAGAGUAACUUUUUUUUUGCUGCUCCCGCUAUAUCCCAGGCC: 0.249
GGGGAAUGAGGGGCUGCAGGAAUCUCUGGAGAGCCUGGUGCUUCACGAUGCUGCUCUGGUGAUUCUUGUACCUAAUCUGGUGUGCUCACCAAUGAGUGAAAGGGAUCGUG: 1.07
AGCUUUGCCCCAAGCCAAUCCCUGCUUUUAAAUGACCCGCAGCGGGGAGCUCUGAAGAAGGAGCUCUGAAGGAAAGGAACAUUGUAUCUGGACAGCAAGCAAGCCAUUUC: 0.554
UCUGCUCUAGACUGUGAAAUCAGCAUGUAUGUGAAAAAUCCCAGUCCUUGACCAUGUCUCCCACUCCACCUGCAAGUGAUUGCUGCCAUCUGUCCUGGGUGGGAUGCACC: 12.3

Set 7 — target: ATF3, bZIP domain (human); technique: DHFR protein complementation; medium: yeast; relative to: wild-type JUN-FOS pair; reading: higher = stronger binding; quantity: binding fitness
Setting: single substitutions, most at no-binding floor
Parent: JUN, bZIP domain (human); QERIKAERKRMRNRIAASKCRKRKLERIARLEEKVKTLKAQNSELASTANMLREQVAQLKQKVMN; partner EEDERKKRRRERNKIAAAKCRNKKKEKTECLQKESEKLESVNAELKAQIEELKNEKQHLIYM
E54L: -0.328 natural log
S47P: -1.24 natural log
A49C: -0.124 natural log
E54V: -0.395 natural log
L38V: -0.942 natural log
E33I: -0.251 natural log
K39A: -0.372 natural log
E44H: -0.219 natural log
S43P: -1.2 natural log
E44R: -0.187 natural log
E32H: -0.352 natural log
K39V: -0.379 natural log
T48C: -0.154 natural log
S47H: -0.0803 natural log
Q41H: -0.314 natural log
K39N: -0.354 natural log
E32C: -0.554 natural log

Some of these lines once more (set 3):
AGTTCCAG: -0.17
AGGAGGGC: -0.201
AATCGGAC: -0.0802
ACTCTAGC: 0.00283
AGCCTTCG: -0.089
AGTTGCCG: 0.199
CCTGTGAA: -0.171
AGCTTCGC: -0.0355
GCCTCCCC: 0.139
ACCGCCCG: 0.421
CCAACGAG: -0.25
ACTTCGCG: 0.11
